{"data": "Measured values of several laboratories", "note": "Every numbered part comes from another study and shows a few of its results, in no order."}
{"data": "Sample 1", "target": "Histone acetyltransferase KAT6A, winged helix 2, GST fusion (KAT6A, Homo sapiens, UniProt Q92794, residues 85-181)", "technique": "protein binding microarray", "form": "double-stranded DNA, one strand shown", "medium": "in vitro", "tested at": "not given", "setting": "8-mer, flanks averaged, mean of 2 arrays, mostly near background", "reference": "not given", "direction": "higher = stronger binding", "Target sequence (chain)": "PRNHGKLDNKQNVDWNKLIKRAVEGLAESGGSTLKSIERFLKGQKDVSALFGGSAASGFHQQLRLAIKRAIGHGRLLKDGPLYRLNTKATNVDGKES"}
{"Sequence": "GTCTATTA", "E-score": -0.111}
{"Sequence": "GGAGGACA", "E-score": 0.0404}
{"Sequence": "CGTCTTAC", "E-score": -0.0651}
{"Sequence": "CAGGCCCG", "E-score": -0.0444}
{"Sequence": "ATCTTTAG", "E-score": 0.0597}
{"Sequence": "GCTGAGTA", "E-score": 0.0588}
{"Sequence": "TACATTCA", "E-score": -0.168}
{"Sequence": "TGTTGCAA", "E-score": 0.00895}
{"Sequence": "CGGCCGAG", "E-score": 0.129}
{"Sequence": "CGGGAGGA", "E-score": 0.152}
{"Sequence": "ACTCGCCC", "E-score": 0.0825}
{"Sequence": "AGGCTAAA", "E-score": -0.0482}
{"Sequence": "GTGTGGCA", "E-score": 0.0223}
{"Sequence": "AGATGACT", "E-score": -0.303}
{"Sequence": "ATTAAGAG", "E-score": -0.0696}
{"Sequence": "AGTTAAAA", "E-score": -0.0769}
{"Sequence": "CTGTAGCC", "E-score": -0.0939}
{"Sequence": "AGGATAAA", "E-score": 0.0294}
{"Sequence": "AAAATTAC", "E-score": -0.0109}
{"Sequence": "GACCTCCA", "E-score": 0.033}
{"data": "Sample 2", "target": "Fragile X messenger ribonucleoprotein 1, C-terminal low-complexity region (Fmr1, Mus musculus, UniProt P35922)", "technique": "RNA Bind-n-Seq", "form": "RNA", "medium": "in vitro", "tested at": "200 nM", "setting": "whole 134-nt RNA, ends assumed", "with": "150 mM LiCl", "reference": "input library", "direction": "higher = stronger binding", "library": "7-deaza-guanosine replaces G", "all sequences stand within": "GGGAGUUCUACAGUCCGACGAUC … UGGAAUUCUCGGGUGUCAAGG"}
{"Sequence": "AAGUCCUGUGCUACACAUCGUAUGUACCGAAUCGGGUUUUUGGGAGGGAAAAAGGGAAAGUAUUAUGUUACGCCGUUCGGAUCUGCACUU", "log2 enrichment": -0.759}
{"Sequence": "CACAGACAACACGCAGCCACACAGACACAGAGGGAAGGGGUUGGGAUGGGGACAGGGUGCACAGCAGGGCGGGGUAGGACCCCAGCCCCU", "log2 enrichment": 1.76}
{"Sequence": "GCAUAAUGGAUAUUUUUUAACUUGGCGAGAUGUGUCUCUCAAUCCUGUGGCUUUGGUGAGAGAGUGUGCAGAGAGCAAUGAUAGCAAAUA", "log2 enrichment": 0.636}
{"Sequence": "UUCAGGAUGAAGAUGCAUCAGGGGGCGAUCAAGAUCAGGAAGAAAGAAGAUGGAACAAAAGGACUCAGCAGAUGCUUCAUGGUCUUCAGG", "log2 enrichment": -2.57}
{"Sequence": "CUGUGCUACACAUCGUAUGUACCGAAUCGGGUUUUUUUGGGUUUUUUUGGGGUUUUUUUGGGAAAGUAUUAUGUUACGCCGUUCGGAUCU", "log2 enrichment": 1.1}
{"Sequence": "UGUGCUACACAUCGUAUGUACCGAAUCGGGGAAAAAAAGGGGUUUUUGGGGUUUUUUUGGGGAAAGUAUUAUGUUACGCCGUUCGGAUCU", "log2 enrichment": -1.16}
{"Sequence": "ACCAUGCAGGUGGGCAUCUUUGGGAAGUGGGGCAAGGGGGGGAUAGGGAGGGGGGUAACACUUUGGGUACAGGUGGUCCCAGGUCGUUUC", "log2 enrichment": 1.54}
{"Sequence": "UGGCCCUGGUGGCAUGCGGGGAGGAAGAGGUGGCCUCAUGGAUCGUGGUGGUCCCGGUGGAAUGUUCAAAGGUGGCCGUGGUGGAGACAG", "log2 enrichment": -0.58}
{"Sequence": "CAAGUCCUGUGCUACACAUCGUAUGUACCGAAUCGGGUUUGGGGUUUGGUUUGGGAAAGUAUUAUGUUACGCCGUUCGGAUCUGCACUUC", "log2 enrichment": -1.5}
{"Sequence": "ACCAUGCAGGUGGGCAUCUUUGGGAAGUGGGGCAAGGGGGGGAUAGGGAGGGGCGUAACACUUUGGGAACAGGUGGUCCCAGGUCGUUUC", "log2 enrichment": 1.66}
{"Sequence": "UUCCAUUGUGAACGUGCCUGGUGAGUCUACUCUUCGCCGAGAUUUCCUGAGACUGCAGCAGGAGAACAAGGAACGUUCCGAGGCUCUUCG", "log2 enrichment": -1.38}
{"data": "Sample 3", "target": "RNA binding protein fox-1 homolog 2, RRM domain, GST-SBP tag (RBFOX2, Homo sapiens, UniProt O43251-10, residues 100-194)", "technique": "RNA Bind-n-Seq", "form": "RNA", "medium": "in vitro", "tested at": "365 nM", "setting": "natural RNA segment, single round, ends assumed", "reference": "no-protein control", "direction": "higher = stronger binding", "all sequences stand within": "GGGAGUUCUACAGUCCGACGAUC … UGGAAUUCUCGGGUGCCAA", "Target sequence (chain)": "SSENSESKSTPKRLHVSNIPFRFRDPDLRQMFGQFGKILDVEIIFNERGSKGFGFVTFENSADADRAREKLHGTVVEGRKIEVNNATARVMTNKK"}
{"Sequence": "AAGGGAGAGGGGAACUACCCCCCCAGCCUGCCCUCCGCCCCGCCCCAGCCGGCGGACUGUGCUGUUUCCUCCGCCCCCACUCCCGUGUUUUCUGACCUCCUGCCUGAGUU", "RBNS enrichment (R)": 1.14}
{"Sequence": "CAAAGAUUUCACCAUGUGUGUUGUUUUUGUUACUGUCUUAAAGGGUGCACAUUUGUGAUCAGCAUUGUGACUUGGAGAUAAUAAAAUUUAGACUGUAGACUUGACUCUGU", "RBNS enrichment (R)": 0.29}
{"Sequence": "UUUGGUUCUCGAACCAUCUACCUGCUUUUCCUCUCUCUCCCAAGGCCUGACAAUGGUACCUAUUAGGGAUGAGAUACAGACAAGGAUAGCUAUCUGGGACAUUAUUGGCA", "RBNS enrichment (R)": 0.62}
{"Sequence": "GAUUUUGCUGAGCUGCAAAGGUAUCUGUCAUAAAAUAUGGUCCCCAGGAAAAGAAUCUCUGUGCUCUAAAUCUCGGUCAGAGCUGUGGCCUCCCCCUUGCCUUUAACCUC", "RBNS enrichment (R)": 0.448}
{"Sequence": "AAAUGUUUUGGAGAGCGGGAGGUUUCCCCCAAUCUCCUCCAAGUUCUUCUCCCUCCAACCAGAGUUGUGUCUAACUUUAGGCAUCUUUUAAUAAAUGUCAUUGCGACUCU", "RBNS enrichment (R)": 0.234}
{"Sequence": "ACUAUAUACCUGUAACUGGACCUGGAGAUGAAGAGAUACCCUCAUUGCUCUGUGUCUGACCCAAUAUUGUUGAAAAAUGAAAUAAAGCAUUAUGCAAAAGGUGUUACAUC", "RBNS enrichment (R)": 0.777}
{"Sequence": "CCGGUCUCCAGGCUCCUCUGAGCUUGGGUCAGCUCCUAAUGGAGCAUGGCACCCCAGGGAACCAGAGGAACUCUGUGAAGAAAGGCAUGGAAAACCGGGGUGUCUCCCGC", "RBNS enrichment (R)": 0.889}
{"Sequence": "GGCCAGAAAUACAAGGUUGAUGAGUAAGCUAUCUGAAGACUUUUAUAAUGCCUACCUUCAAAACCAGAAUCGGCAGCACUCUACAAAUGAAAGUGCCUGUGUCUCACACC", "RBNS enrichment (R)": 0.631}
{"Sequence": "AAGGGUUUCAGAACAGAGCCACGGGACUGGUAGGAAGAGGAGAUCCACAAAUGCUGUAUACAGGCUGUACCGCUGCUUCAAACCCCACUUGUCCAGUGCUUCACAGUGUU", "RBNS enrichment (R)": 0.516}
{"Sequence": "GAUUGUGUUGGGGGAGGGACUGACUGUACUCAUGGCUAACUUAAAGUAUUAAAAUAAGGCUGUCCCCUACAACCUUCUUAGUCACACAGGAUCCCUGUAGCCAAAACAGU", "RBNS enrichment (R)": 0.786}
{"Sequence": "UCAAAGGACAAGUCGGACUUGUGAGUCCUAGGUGACCACACUGCUUCCCUUUCUCAGUUCCUGACCUUCCUCUGAGCCCUUGAGACACUUUGUAAUGCUCUUUUGUAACU", "RBNS enrichment (R)": 0.445}
{"Sequence": "GAGCACGAGUUCACCUUCCAGAUGUGGCCAGGGUGUGCCAGCUCCUCUCUCCUGUGCGUUGGAACCCCGGGGGAGGCAAGAGCAGAUCACAGGUGCAUGAGGGUUACACC", "RBNS enrichment (R)": 2.97}
{"data": "Sample 4", "target": "Hepatocyte nuclear factor 3-alpha (Foxa1, Mus musculus, UniProt P35582, residues 1-468, full length assumed)", "technique": "EMSA with sequencing", "form": "double-stranded DNA, one strand shown", "medium": "in vitro", "tested at": "10 and 20 nM", "setting": "whole designed probe, mean of two concentrations, ends assumed", "reference": "negative control set to 0", "direction": "higher = stronger binding", "all sequences stand within": "GTGAGCGGTGCCCATTGATGGGGAAC … TTTCACTGGGATCGTGGGGAC", "Target sequence (chain)": "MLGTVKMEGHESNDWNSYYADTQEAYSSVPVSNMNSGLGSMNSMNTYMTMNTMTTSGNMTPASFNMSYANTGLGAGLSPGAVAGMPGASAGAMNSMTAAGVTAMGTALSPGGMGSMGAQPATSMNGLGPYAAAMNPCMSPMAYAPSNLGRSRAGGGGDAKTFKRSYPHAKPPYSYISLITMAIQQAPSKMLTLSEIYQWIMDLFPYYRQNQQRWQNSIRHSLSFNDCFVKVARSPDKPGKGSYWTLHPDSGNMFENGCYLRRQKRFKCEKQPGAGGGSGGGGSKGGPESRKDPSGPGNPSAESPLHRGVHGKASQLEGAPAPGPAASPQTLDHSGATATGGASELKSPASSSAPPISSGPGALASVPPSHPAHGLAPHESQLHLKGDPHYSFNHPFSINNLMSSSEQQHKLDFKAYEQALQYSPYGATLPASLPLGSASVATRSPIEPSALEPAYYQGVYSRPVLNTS"}
{"Sequence": "CAAGACCCCTTGGCCCTCATCATGTTTTCCCAGCATCAAACCTTTAGACGTATTTAATGGCCCAAGGCATTCCAAGAATGAATATATTTGTGTGTACTCTAGCAACCAACCAAAGAGATGGTTAATGTTTCATAAGACTGCCTAGTCACATTGTTGACATCTGAAACATCTTCTAATTTAAGACAGAGTTCAG", "normalised bound fraction": "0.13 ratio"}
{"Sequence": "ATCTTCCCCCTCTTCCTTGCCCCACCAGCTCACCTACGGGGGTTATTTGCAGATAGGAAAATAAATAAAGCCGGCATTCGTTAACCCTCTTCTGGCGCAAACTGCTGTTTGCTCTGGATCTAACATGGTCCTTTGGCGACGCCAGGCTCCGGGAGAGCAAAGCACCGTGTCAGGGCCATGATCCGGGGTGGCC", "normalised bound fraction": "0.352 ratio"}
{"Sequence": "CTTTTAGTCCTTTTGTTTTACAGTCTCACAGTTAATTGTTCTTAGTTGATTTATCTTTTCTTACTCTTTCATAAGACTTTTCTTTTATCTCATGTTTACTTTGTTCTTATATTACTTATTTACTTAGTTTCTTCTTATCACCTTAGGCTTTGTTTTAATTATTTCCTTTTTATGTTATCTATTTTTCATTTTA", "normalised bound fraction": "0.544 ratio"}
{"Sequence": "AGCAAGGCTTTAAAAGTGAGGTCTTTCAGTTTAGATGCAAAAAGGGTGGTTCTGTTGAGTCAACCCAGCTATTTCACTACATAGTTTCGTAATGTAAACACCTAGAATGAGGTAGCTGGAGTGCAAATCTAAATGGCTTGTGACAGTTAAGGAAGTACATAGGCAACAGTTACTGGTTTTCTTGATGCAGCTG", "normalised bound fraction": "0.243 ratio"}
{"Sequence": "AAAAGCCAACTAAATATTTATTTCAAAAGTAGTTCATATTACATGTAAAGAATGGTTTAAAAAAAATTCTTACTTAATCCCTGGTTTATGTGAGTAAATATGAATTCTTAAGAATCCCATTTCCCAAATGGCATCATAATATTTTGTAATCATTTCTTGCCACAGGTCATATATCGTGGATAGTTCTGTATGT", "normalised bound fraction": "0.163 ratio"}
{"Sequence": "CTTCCCACAGCCGACCTCCTCCGCCTGTCCCTCCCGCCACCCCGCCTGTCCCCCGCCTTTCCAGCAGCCTCCAAGTGGCAGGCTGGGTGCTGTGTCAATAAGGGTGTGTGCCCTGCCAGGACCACGGGGCGGGTCGGGAACCGGTTACCTGGCGGGCGGGCGAGGCGCACGTCCTGGCTCGTGCCTCACCGCG", "normalised bound fraction": "0.286 ratio"}
{"Sequence": "ATGCTTGGAAATATTTTAAACAGTGAAATCACCAACAAAAAGAGCATAAAAATGTGAAAAACATGGCTCTAAATAGCCCGCCAAAAGGGCACTAAATTACAGAGCTGAACCACAAAGGCAGAACGTCATCTTGTTCGATCTCAGCTAGGAACGTGCTCATAGGGTGACTCAGATTTTTGGCCACTGTGTGCAT", "normalised bound fraction": "0.022 ratio"}
{"Sequence": "CACAGATTGCGGCCGTTTTTCAAATATTTGAGGAGTTCTTAGGTGTAGTTGTTCTATTCATTTCCTACTTATGTCCCTTTATTTTATTGCAAAATAAACACAGCTTGGCACTTGACATTTTCCCTGACCCATCTTTTAAACATACATTAGATGTGAGTCATAGGCAATGAACGGAACTCGCATTTTTGCCCAC", "normalised bound fraction": "0.312 ratio"}
{"note": "For quick reference, copied from above (sample 1):"}
{"Sequence": "ATTAAGAG", "E-score": -0.0696}
{"Sequence": "GACCTCCA", "E-score": 0.033}
{"Sequence": "CGGCCGAG", "E-score": 0.129}
